{"data": "Measurements from different studies", "note": "Each line is one published result; not all experiments were run side by side. Numbers after ± are the reported error."}
{"Structure (SMILES)": "N[C@@H](Cc1ccc(F)cc1)C(=O)O", "assay": "in situ brain perfusion", "system": "CF-1 mice, wild type", "conditions": "1 µM, 60-180 s", "endpoint": "brain uptake clearance Kin", "result": "127 mL/100 g/min"}
{"Structure (SMILES)": "CCCCCCCCCCCC[N+](C)(C)CCCCCCCCCCCC", "assay": "ultrafiltration", "system": "human serum", "endpoint": "unbound fraction in blood", "result": 0.09}
{"Structure (SMILES)": "CC(=O)N[C@H](CCCCNC(=O)C(C)F)C(=O)N[C@@H](CS)C(=O)N[C@@H](CS)C(=O)N[C@@H](CCC(=O)O)C(=O)N[C@@H](Cc1c[nH]cn1)C(=O)N[C@H](Cc1ccccc1)C(=O)N[C@@H](CCCNC(=N)N)C(=O)N[C@@H](Cc1c[nH]c2ccccc12)C(=O)N[C@@H](CS)C(=O)N[C@@H](CCCNC(=N)N)C(=O)N1CCC[C@H]1C(=O)N[C@H](C(N)=O)C(C)C (stereo partly drawn) [fluorine-18 labelled]", "system": "C57BL/6 mice, male, B16-F10 tumour, stomach", "conditions": "intravenous, 1 h", "endpoint": "tissue uptake", "result": "0.67 ± 0.31 %ID/g"}
{"Structure (SMILES)": "C[C@@H]1COCCN1c1cc([C@]2(O)C[C@H]3CC[C@@H](C2)O3)c2cnn(-c3cc[nH]n3)c2n1", "system": "mouse, tumour-bearing", "conditions": "oral, 17 days, continuous daily dosing", "endpoint": "MTD", "result": "10 mg/kg"}
{"Structure (SMILES)": "CN[C@@](C)(C[18F])C(=O)O", "system": "mouse, bone", "conditions": "15 min, tumour-bearing", "endpoint": "tracer uptake", "result": "4.2 %ID/g"}
{"Structure (SMILES)": "Oc1ccc2ccc3cccc4ccc1c2c34", "assay": "HPLC-fluorescence", "system": "Wistar rat, male, jejunum", "conditions": "oral, 4 mg/kg PY, 24 h", "endpoint": "tissue concentration", "result": "1300 ± 200 ng/g"}
{"Structure (SMILES)": "O[C@H]1CCCN[C@@H]1CCCn1cnc2c(Cl)c(Cl)ccc21", "system": "human, plasma", "conditions": "oral, 500 mg, single dose, healthy volunteers", "endpoint": "AUC", "result": "2280 ng·h/mL"}
{"Structure (SMILES)": "CC(C)C[C@H](NC(=O)CNC(=O)[C@H](CCCNC(=N)N)NC(=O)[C@@H]1CCCN1C(=O)[C@@H](NC(=O)CNC(=O)[C@H](CCCNC(=N)N)NC(=O)[C@H](CC(C)C)NC(=O)[C@H](CCC(=O)O)NC(=O)[C@H](C)NC(=O)[C@H](CC(C)C)NC(=O)[C@H](CCCNC(=N)N)NC(=O)[C@H](CO)NC(=O)[C@H](CCCNC(=N)N)NC(=O)[C@H](C)NC(=O)[C@H](CCCNC(=N)N)NC(=O)[C@H](CCCNC(=N)N)NC(=O)[C@H](CCCNC(=N)N)NC(=O)[C@H](CCC(N)=O)NC(=O)[C@H](CCCNC(=N)N)NC(=O)[C@H](CCCNC(=N)N)NC(=O)[C@H](CCCCN)NC(=O)[C@H](CCCCN)NC(=O)[C@H](CCCNC(=N)N)NC(=O)CNC(=O)[C@@H](N)Cc1ccc(O)cc1)C(C)C)C(=O)O", "assay": "conditioned place preference", "system": "rat", "conditions": "intracerebroventricular, 10 µg in 5 µL, 5 pairings, test 24 h after last", "how to read": "baseline: total time", "endpoint": "time in drug-paired chamber", "result": "45.7 ± 7.1%"}
{"Structure (SMILES)": "C#Cc1cccc2c1[nH]c1cnc(C(=O)OC(C)(C)C)cc12", "system": "Wistar rat, brain", "conditions": "intraperitoneal, 10 mg/kg daily for 4 days, 20 min after last dose, together with: diazepam 2 mg/kg", "endpoint": "brain concentration", "result": "72.3 ± 16.3 nM"}
{"Structure (SMILES)": "CSCC[C@@H]1NC(=O)[C@H](CC(=O)O)NC(=O)CNC(=O)[C@H](CCCNC(=N)N)NC(=O)[C@H](C)NC(=O)[C@H](CCC(=O)O)NC(=O)[C@H](CCCNC(=N)N)NC(=O)[C@@H]2CSSC[C@@H]3NC(=O)[C@H](CO)NC(=O)[C@H]([C@@H](C)O)NC(=O)[C@@H]4CCCN4C(=O)[C@H](C)NC(=O)[C@H](Cc4c[nH]c5ccccc45)NC(=O)[C@H](CC(=O)O)NC(=O)CNC(=O)[C@H](CCCNC(=N)N)NC(=O)CNC(=O)[C@H](CCC(N)=O)NC(=O)[C@@H]4CCCN4C(=O)[C@@H](NC(=O)CNC(=O)C(C)F)CSSC[C@H](NC(=O)CNC(=O)[C@H](C)NC(=O)[C@H](CC(C)C)NC(=O)[C@H](CSSC[C@@H](C(=O)NCC(N)=O)NC(=O)[C@H]([C@@H](C)O)NC(=O)[C@H](CCCNC(=N)N)NC(=O)[C@@H]4CCCN4C1=O)NC(=O)[C@H](CC(=O)O)NC(=O)[C@H](CO)NC(=O)[C@H](CC(=O)O)NC(=O)[C@H](CCC(N)=O)NC(=O)[C@H](CO)NC3=O)C(=O)N[C@@H](C(C)C)C(=O)N2 (stereo partly drawn) [fluorine-18 labelled]", "system": "nude mice U-87 MG xenograft, brain", "conditions": "intravenous, 2.5 h", "endpoint": "tissue uptake", "result": "0.15 ± 0.06 %ID/g"}
{"Structure (SMILES)": "CC1(C)S[C@@H]2[C@H](NC(=O)[C@@H](C(=O)O)c3ccsc3)C(=O)N2[C@H]1C(=O)O", "system": "rat plasma", "conditions": "30 ng/mL, 24 h, room temperature, short-term stability", "how to read": "baseline: nominal concentration", "endpoint": "relative error", "result": "-4%"}
{"Structure (SMILES)": "O=c1[nH]c(=O)[nH]c(=O)[nH]1", "assay": "LC-MS/MS", "system": "CD IGS rat, pregnant female, amniotic fluid vs serum", "conditions": "oral, 1000 mg/kg/day, 10 days", "endpoint": "Pearson correlation coefficient", "result": 0.83}
{"note": "A few entries again:"}
{"Structure (SMILES)": "O[C@H]1CCCN[C@@H]1CCCn1cnc2c(Cl)c(Cl)ccc21", "system": "human, plasma", "conditions": "oral, 500 mg, single dose, healthy volunteers", "endpoint": "AUC", "result": "2280 ng·h/mL"}
{"Structure (SMILES)": "CC(C)C[C@H](NC(=O)CNC(=O)[C@H](CCCNC(=N)N)NC(=O)[C@@H]1CCCN1C(=O)[C@@H](NC(=O)CNC(=O)[C@H](CCCNC(=N)N)NC(=O)[C@H](CC(C)C)NC(=O)[C@H](CCC(=O)O)NC(=O)[C@H](C)NC(=O)[C@H](CC(C)C)NC(=O)[C@H](CCCNC(=N)N)NC(=O)[C@H](CO)NC(=O)[C@H](CCCNC(=N)N)NC(=O)[C@H](C)NC(=O)[C@H](CCCNC(=N)N)NC(=O)[C@H](CCCNC(=N)N)NC(=O)[C@H](CCCNC(=N)N)NC(=O)[C@H](CCC(N)=O)NC(=O)[C@H](CCCNC(=N)N)NC(=O)[C@H](CCCNC(=N)N)NC(=O)[C@H](CCCCN)NC(=O)[C@H](CCCCN)NC(=O)[C@H](CCCNC(=N)N)NC(=O)CNC(=O)[C@@H](N)Cc1ccc(O)cc1)C(C)C)C(=O)O", "assay": "conditioned place preference", "system": "rat", "conditions": "intracerebroventricular, 10 µg in 5 µL, 5 pairings, test 24 h after last", "how to read": "baseline: total time", "endpoint": "time in drug-paired chamber", "result": "45.7 ± 7.1%"}
